Published values collected from several papers.
“And” joins repeats or separate records; there may be more than shown. Numbers after ± are the reported error.

Nc1cnc(Cl)cc1NC(=O)Nc1cc(C(F)F)ns1  concentration (MALDI MSI; NSG mouse, non-tumor bearing, brain; intraperitoneal, dose not given, 1 h): 1300 ± 200 nM
CC[C@H](C)[C@H](NC(=O)[C@H](CCCCN)NC(=O)CNC(=O)[C@H](CC(C)C)NC(=O)[C@H](Cc1ccccc1)NC(=O)[C@H](CCCCN)NC(=O)[C@H](CO)NC(=O)[C@H](Cc1ccccc1)NC(=O)[C@H](Cc1c[nH]c2ccccc12)NC(=O)[C@H](CCC(N)=O)NC(=O)[C@@H](NC(=O)[C@H](Cc1ccccc1)NC(=O)CCCCCNC(=O)CN1CCN(CC(=O)O)CCN(CC(=O)O)CCN(CC(=O)O)CC1)C(C)C)C(=O)N[C@@H](CCC(=O)O)C(=O)N1CCC[C@H]1C(=O)N[C@@H](CC(=O)O)C(=O)N[C@H](C(=O)N[C@@H](CO)C(=O)N[C@@H](CCC(N)=O)C(=O)N[C@H](C(=O)N[C@@H](CCC(N)=O)C(=O)N[C@@H](CC(=O)O)C(=O)N1CCC[C@H]1C(=O)N[C@@H](CC(N)=O)C(=O)N[C@@H](CC(=O)O)C(=O)N[C@@H](CCC(N)=O)C(=O)N[C@@H](Cc1ccc(O)cc1)C(=O)N[C@@H](CCC(=O)O)C(=O)N1CCC[C@H]1C(=O)N[C@@H](Cc1ccccc1)C(=O)O)C(C)C)C(C)C [copper-64 labelled]  tissue uptake (C57BL/6 mice, male, tumour-free, kidneys; 4 h): 54.2 ± 12.6 %ID/g
O=C1NC2(CC2)COc2ncc(F)cc2[C@H]2COCCN2c2ccn3ncc1c3n2  prothrombin time (Sprague-Dawley rat, female, plasma; oral, 10 mg/kg/day, end of treatment, 4-week repeated-dose toxicity): 8.3 ± 0.2 s
COc1ccc(CNc2ccc3c(c2)S(=O)(=O)C=C3)cc1  mean platelet volume (male C57BL/6 mice, blood; intraperitoneal, 20 mg/kg, day 8, group average): 5.4 fL
CC(=O)c1c(C)c2cnc(Nc3ccc(N4CCNCC4)cn3)nc2n(C2CCCC2)c1=O  platelet count (C57BL/6 mice, blood; 25 mg/kg, P25, dosed P10 to P24): 616 ± 76 10⁹/liter
CCN(CCCCOc1ccc(CCC(=O)N2CCC(Cc3ccccc3)CC2)cc1OC)Cc1ccccc1  excretion rate (Sprague-Dawley rats, both sexes, faeces; oral gavage, 25 mg/kg, 24 to 48 h; reference: dose): 0.814 ± 0.0763%
CC(C)[C@@H]1NC(=O)CNC(=O)[C@H](CC(N)=O)NC(=O)[C@H](CCCNC(=N)N)NC(=O)[C@H](Cc2ccc(O)cc2)NC(=O)[C@H](C(C)C)NC(=O)[C@@H](NC(=O)[C@@H](NC(=O)[C@H](CC(N)=O)NC(=O)[C@H](Cc2c[nH]c3ccccc23)NC(=O)[C@H](C)NC(=O)[C@H](Cc2ccccc2)NC(=O)CNC(=O)[C@H](CCCCN)NC(=O)[C@H](Cc2ccccc2)NC(=O)[C@H](Cc2ccccc2)NC(=O)[C@H](CCCCN)NC(=O)OCC2c3ccccc3-c3ccccc32)C(C)C)CSSC[C@@H](C(=O)N[C@@H](Cc2c[nH]cn2)C(=O)N[C@@H](CCCNC(=N)N)C(=O)N[C@@H](CCCNC(=N)N)C(=O)N[C@@H](C)C(=O)N[C@@H](CC(N)=O)C(N)=O)NC(=O)[C@H](C(C)C)NC(=O)[C@H](CCCNC(=N)N)NC1=O  total protein (ICR mouse, serum; ip, 10 mg/kg, 3 d dosing, blood day 5): 52.3 ± 0.88 g/L
[2H]C([2H])([18F])[C@]([2H])(N)C(=O)O  muscle uptake (PET; athymic nude mouse; 90 min): 0.65 ± 0.23 %ID/cc
CC(C(=O)O)n1nc(Cn2cc3cc(OCC[18F])c(Cl)cc3n2)c2ccccc2c1=O (racemic)  hydrophilic radiometabolite (HPLC; nonhuman primate, plasma; 120 min post-injection; reference: plasma radioactivity): 13%
COc1cnc2cccc(N3CCc4c(cc(Cn5ccnc5)cc4-c4cn(C)nc4C(F)(F)F)C3=O)c2c1  body weight (BALB/c nude mice, MV4-11 xenograft; intraperitoneal, 50 mg/kg, day 21): 20.8 g and 23.8 g and 23.5 g and 21.4 g and 23.1 g
CC[C@H](C)[C@H](NC(=O)CN)C(=O)N[C@@H](CCCNC(=N)N)C(=O)N[C@@H](CCCCN)C(=O)N[C@@H](Cc1c[nH]c2ccccc12)C(=O)N[C@@H](Cc1ccccc1)C(=O)N[C@@H](CCCCN)C(=O)N[C@@H](CCCCN)C(=O)N[C@@H](C)C(=O)N[C@@H](C)C(=O)N[C@@H](Cc1c[nH]cn1)C(=O)N[C@H](C(=O)NCC(=O)N[C@@H](CCCCN)C(=O)N[C@@H](CCCCN)C(=O)N[C@H](C(=O)NCC(=O)N[C@@H](CCCCN)C(=O)N[C@H](C(=O)N[C@@H](C)C(=O)N[C@@H](CC(C)C)C(=O)N[C@@H](CC(N)=O)C(=O)N[C@@H](C)C(=O)N[C@@H](Cc1ccc(O)cc1)C(=O)N[C@@H](CC(C)C)C(N)=O)C(C)C)C(C)C)C(C)C  acute toxic concentration (zebrafish embryos 28 hpf, E3 medium; 1 h): 5 µM
CC(CCC(=O)NCC(=O)O)C1CCC2C3CCC4CC(OC5OC(C(=O)O)C(O)C(O)C5O)CCC4(C)C3CC(O)C12C (stereo not shown)  ratio of metabolic ratios (refers to: glucuronide to parent ratio; women, plasma; dose not given; reference: T/C over T/T): 1.87
N=C(N)NCCC[C@H](NC(=O)[C@H](CCCNC(=N)N)NC(=O)[C@H](CCCNC(=N)N)NC(=O)[C@H](CCC(N)=O)NC(=O)[C@H](CCCNC(=N)N)NC(=O)[C@H](CCCNC(=N)N)NC(=O)[C@H](CCCCN)NC(=O)[C@H](CCCCN)NC(=O)[C@H](CCCNC(=N)N)NC(=O)CNC(=O)[C@H](Cc1ccc(O)cc1)NC(=O)[C@H](Cc1ccccc1)NC(=O)[C@H](Cc1ccccc1)NC(=O)[C@H](Cc1ccccc1)NC(=O)OCC1c2ccccc2-c2ccccc21)C(=O)O  health score (C57BL/6 mice; intraperitoneal, 5 mg/kg, 24 h; direction not given): 5
C[C@H](NCc1ccc(-c2ccc(C(F)(F)F)cc2)cc1)C(N)=O  NOAEL (general toxicity; Sprague-Dawley rat; oral, multiple doses): > 200 mg/kg
CC(C)C[C@H](NC(=O)[C@H](Cc1ccccc1)NC(=O)CNC(=O)CNC(=O)[C@@H](N)Cc1ccc(O)cc1)C(=O)N[C@@H](CSCB(O)O)C(N)=O  peptide remaining intact (RP-HPLC; PBS; concentration not given, 24 h, pH 7.4, together with: NADH 100 µM): 49%
CSCC[C@H](NC(=O)CNC(=O)[C@H](CCCCN)NC(=O)[C@H](CC(C)C)NC(=O)[C@@H]1CCCN1C(=O)[C@H](CO)NC(=O)[C@H](Cc1c[nH]cn1)NC(=O)[C@H](Cc1c[nH]c2ccccc12)NC(=O)[C@H](CCCNC(=N)N)NC(=O)[C@H](CC(C)C)NC(=O)[C@H](CCCNC(=N)N)NC(=O)[C@H](Cc1c[nH]c2ccccc12)NC(=O)[C@H](CS)NC(=O)CCCCCNC(=O)CN1CCN(CC(=O)O)CCN(CC(=O)O)CCN(CC(=O)O)CC1)C(=O)O [copper-64 labelled]  tissue uptake (ex vivo biodistribution; C57BL/6J mice bearing B16-F10 tumours, liver; intravenous, 1.85 MBq, 18 h): 11.1 %ID/g
CCCCCCCCCCCCCCCC(=O)N1CCN(C(=O)C2CCNCC2)CCN(C(=O)C2CCNCC2)CC1  hydrodynamic diameter (dynamic light scattering; deionized water; 128 µg/mL, 25 °C, intensity average): 355 nm
CC[C@H](C)[C@H](NC(=O)CNC(=O)[C@H](CCSC)NC(=O)[C@H](CCC(N)=O)NC(=O)[C@H](C)NC(=O)[C@H](CCC(N)=O)NC(=O)[C@@H](NC(=O)[C@H](CC(C)C)NC(=O)[C@H](C)NC(=O)[C@H](CO)NC(=O)[C@H](CCSC)NC(=O)[C@H](CCC(=O)O)NC(=O)[C@H](CC(C)C)NC(=O)[C@H](Cc1ccc(O)cc1)NC(=O)[C@H](CO)NC(=O)[C@H](CCC(=O)O)NC(=O)[C@H](CCC(N)=O)NC(=O)[C@H](CCCNC(=N)N)NC(=O)[C@H](CCCCN)NC(=O)[C@H](CC(=O)O)NC(=O)[C@H](CC(C)C)NC(=O)[C@H](CC(N)=O)NC(=O)[C@H](Cc1ccccc1)NC(=O)[C@H](CCC(=O)O)NC(=O)[C@H](CCCCN)NC(=O)[C@@H](NC(=O)[C@H](CC(C)C)NC(=O)[C@H](CCC(=O)O)NC(=O)[C@H](CCC(=O)O)NC(=O)[C@@H](NC(=O)[C@@H](NC(=O)[C@H](CCCNC(=N)N)NC(=O)[C@H](CCCCN)NC(=O)[C@H](C)NC(=O)[C@H](Cc1ccccc1)NC(=O)[C@H](CCC(=O)O)NC(=O)[C@H](CCC(=O)O)NC(=O)[C@H](CC(C)C)NC(=O)[C@@H](N)CO)C(C)C)C(C)C)C(C)C)[C@@H](C)CC)C(=O)N[C@@H](CO)C(=O)N[C@@H](CCC(=O)O)C(=O)N[C@@H](CCCNC(=N)N)C(=O)N[C@H](C(=O)N[C@H](C(=O)N[C@@H](CCC(=O)O)C(=O)N[C@H](C(=O)N[C@H](C(=O)N[C@@H](CC(C)C)C(=O)N[C@@H](CCCNC(=N)N)C(=O)N[C@@H](Cc1c[nH]cn1)C(=O)N[C@@H](C)C(=O)N[C@@H](C)C(=O)N[C@@H](CCC(N)=O)C(=O)N[C@H](C(=O)N[C@@H](CC(C)C)C(=O)N[C@@H](CCCCN)C(=O)O)[C@@H](C)O)C(C)C)[C@@H](C)CC)[C@@H](C)CC)[C@@H](C)CC  Vss (CD-1 ICR mouse, male, plasma; intravenous, 1 mg/kg): 1.31 L/kg
O=C(c1cc(Cc2n[nH]c(=O)c3ccccc23)ccc1F)N1CC(CNC2CC2)C1  Vss (ICR mouse, female, plasma; intravenous, 20 mg/kg): 5.28 L/kg

For quick reference, copied from above:
C[C@H](NCc1ccc(-c2ccc(C(F)(F)F)cc2)cc1)C(N)=O  NOAEL (general toxicity; Sprague-Dawley rat; oral, multiple doses): > 200 mg/kg
CC(C)C[C@H](NC(=O)[C@H](Cc1ccccc1)NC(=O)CNC(=O)CNC(=O)[C@@H](N)Cc1ccc(O)cc1)C(=O)N[C@@H](CSCB(O)O)C(N)=O  peptide remaining intact (RP-HPLC; PBS; concentration not given, 24 h, pH 7.4, together with: NADH 100 µM): 49%
